Measurements gathered from unrelated publications.
± gives the spread as reported.

| Compound | organism | test | test system | setting | how to read | measurement | result |
| --- | --- | --- | --- | --- | --- | --- | --- |
| C1CC2C3C4C5CCC4C24CNCC54C13 | Influenza A virus | viral replication | MDCK, A/FM/1/47 (H1N1) | – | – | EC50 | 12 ± 3 µM |
| COc1ccc2nc(C)cc(OCC(=O)Nc3cc(C)cc(C)c3)c2c1 | Haemophilus influenzae | microbial growth, broth dilution | H128 | – | – | MIC | 64 µM |
| CCN(CC)CC#CCOC(=O)[C@]1(C)CCC[C@]2(C)c3ccc(C(C)C)cc3CC[C@@H]12 | Influenza A virus | viral replication | MDCK, A/Puerto Rico/8/34 (H1N1) | – | – | IC50 | 21 µM |
| CN(C)CC12C3CCC4C3C3C(CCC31)C42 | Influenza A virus | viral replication | MDCK, H3N2 A/HK/7/87 | – | – | EC50 | > 100 µM |
| CCCC(=O)NCC(=O)N[C@@H](CC(C)C)C(=O)N[C@@H](CC(C)C)C(=O)N[C@@H](CCCCN)C(=O)N[C@@H](CCCNC(=N)N)C(=O)N[C@H](C(=O)N[C@@H](CCCCN)C(=O)N[C@H](C(=O)N[C@@H](CC(C)C)C(=O)N[C@@H](CC(C)C)C(=O)NCCCC[C@H](NC(=O)[C@H](CCCCNC(=O)[C@H](CC(C)C)NC(=O)[C@H](CC(C)C)NC(=O)[C@@H](NC(=O)[C@H](CCCCN)NC(=O)[C@@H](NC(=O)[C@H](CCCNC(=N)N)NC(=O)[C@H](CCCCN)NC(=O)[C@H](CC(C)C)NC(=O)[C@H](CC(C)C)NC(=O)CNC(=O)CCC)[C@@H](C)CC)[C@@H](C)O)NC(=O)[C@H](CC(C)C)NC(=O)[C@H](CC(C)C)NC(=O)[C@@H](NC(=O)[C@H](CCCCN)NC(=O)[C@@H](NC(=O)[C@H](CCCNC(=N)N)NC(=O)[C@H](CCCCN)NC(=O)[C@H](CC(C)C)NC(=O)[C@H](CC(C)C)NC(=O)CNC(=O)CCC)[C@@H](C)CC)[C@@H](C)O)C(N)=O)[C@@H](C)O)[C@@H](C)CC | Klebsiella pneumoniae | checkerboard | ATCC 700603 | added: polymyxin B | – | FIC index | 0.312 |
| c1ccc(CNCC23C4CCC5C4C4C(CCC42)C53)cc1 | Influenza A virus | viral replication | MDCK, H1N1 A/PR/8/34 | – | – | EC50 | > 100 µM |
| CC(C)C1=C[C@@]23CC[C@@H]4[C@](C)(CCC[C@@]4(C)C(=O)NCC#CCN4CCCNCC4)[C@H]2C[C@@H]1C1=C3C(=O)C=CC1=O | Influenza A virus | viral replication | MDCK, A/Puerto Rico/8/34 (H1N1) | – | – | IC50 | 0.19 µM |
| COc1ccc(CCNc2cc(-c3ccccc3)nc3ncnn23)cc1 | Haemophilus influenzae | broth microdilution | H128 AcrA- | – | – | MIC | 64 µM |
| O=[N+]([O-])NC1=NCCN1Cc1ccc(Cl)nc1 | Myzus persicae | leaf-dip bioassay | – | 72 h, adults | relative to: LC50 over susceptible strain | resistance ratio | 20 |
| COC(=O)[C@]1(C)CCC[C@]2(C)[C@H]3C[C@H]4C(C(C)C)=C[C@]3(CC[C@H]21)[C@H]1[C@@H]4[C@@H](OCC#CCN2CCOCC2)CC[C@@H]1O | Influenza A virus | – | MDCK, A/Puerto Rico/8/34 (H1N1) | – | relative to: CC50 over IC50 | selectivity index | 1.77 |
| CC[C@H](C)[C@@H]1NC(=O)[C@H](CC(C)C)NC(=O)[C@@H](NC(=O)[C@H](CO)NC(=O)[C@H](CCCNC(=N)N)NC(=O)[C@@H](N)CO)CSSC[C@@H](C(=O)N[C@@H](CCC(N)=O)C(=O)N[C@@H](CCCNC(=N)N)C(=O)N[C@@H](CC(C)C)C(=O)N[C@@H](Cc2ccccc2)C(N)=O)NC(=O)[C@H](C(C)C)NC(=O)[C@H]([C@@H](C)CC)NC(=O)[C@H](CC(C)C)NC(=O)[C@@H](NC(=O)[C@H](CO)NC(=O)[C@H](CCCNC(=N)N)NC(=O)[C@@H](N)CO)CSSC[C@@H](C(=O)N[C@@H](CCC(N)=O)C(=O)N[C@@H](CCCNC(=N)N)C(=O)N[C@@H](CC(C)C)C(=O)N[C@@H](Cc2ccccc2)C(N)=O)NC(=O)[C@H](C(C)C)NC1=O | Listeria monocytogenes | broth microdilution | ATCC BAA-679 (EGD-e) | – | – | MIC | 12.5 µg/mL |
| CC(=N)N1CC23C4C=CC5C4C4C2C=CC4C53C1 | Influenza A virus | viral replication | MDCK, H3N2 A/HK/7/87 | – | – | EC50 | > 100 µM |
| CC[C@H](C)[C@H](NC(=O)[C@H](C)NC(=O)[C@H](C)NC(=O)[C@H](Cc1ccccc1)NC(=O)[C@H](C)NC(=O)CNC(=O)[C@H](Cc1ccccc1)NC(=O)[C@@H](N)Cc1ccccc1)C(=O)N[C@@H](C)C(=O)N[C@@H](CO)C(=O)N[C@@H](CC(C)C)C(=O)N[C@H](C(=O)N[C@H](C(=O)N1CCC[C@H]1C(=O)N[C@@H](CCCCN)C(=O)N[C@@H](CC(C)C)C(=O)N[C@H](C(=O)N[C@@H](CCC(=O)O)C(=O)N[C@@H](CCCCN)C(=O)N[C@H](C(=O)N[C@@H](CCCCN)C(=O)N[C@@H](CCC(N)=O)C(=O)N[C@@H](C)C(=O)N[C@@H](CCCNC(=N)N)C(N)=O)[C@@H](C)CC)[C@@H](C)CC)[C@@H](C)CC)C(C)C | Aspergillus flavus | ATP luminescence | ATCC 9170 | 48 h, 37 °C | – | MIC | > 50 µM |
| CCCCCCCC(=O)NCC(=O)N[C@@H](CC(C)C)C(=O)N[C@@H](CC(C)C)C(=O)N[C@@H](CCCCN)C(=O)N[C@@H](CCCNC(=N)N)C(=O)N[C@H](C(=O)N[C@@H](CCCCN)C(=O)N[C@H](C(=O)N[C@@H](CC(C)C)C(=O)N[C@@H](CC(C)C)C(N)=O)[C@@H](C)O)[C@@H](C)CC | Klebsiella pneumoniae | checkerboard | ATCC 700603 | added: rifampicin | – | FIC index | 0.312 |
| CONC(=O)[C@H]1[C@@H](O)[C@@]2(O)c3c(OC)cc(OC)cc3O[C@@]2(c2ccc(OC)cc2)[C@@H]1c1ccccc1 | Human coronavirus 229E | item: genomic and subgenomic RNA | – | concentration not given | – | viral RNA level | decreased |
| N=C(N)N1CC23C4C5CC5C5C4C4C2C2CC2C4C53C1 (centres unmarked) | Influenza A virus | viral replication | MDCK, H1N1 A/PR/8/34 | – | – | EC50 | > 100 µM |
| CCc1ccc([C@@H]2C[C@H](C(F)(F)F)n3ncc(C(=O)NCc4ccc(OC)cc4)c3N2)cc1 | Haemophilus influenzae | broth microdilution | H128 AcrA- | – | – | MIC | 16 µM |
| CCC1(CC)C2CC3CC(C2)CC1(N(C)C)C3 | Influenza A virus | viral replication | MDCK, A/Ned/378/05 (H1N1) | – | – | EC50 | 23 ± 3 µM |
| COc1ccc(C(=O)OC2C(OC3C(O)COC(OC4CC5C6CC=C7CC(O)CCC7(C)C6CCC5(C)C4(O)C(C)C(=O)CCC(C)C)C3OC(C)=O)OCC(O)C2O)cc1 (centres unmarked) | Human coronavirus 229E | viral replication, imaging | MRC5 | 24 h | – | IC50 | 0.0005 µM |
| COc1ccc2nc(C)cc(OCC(=O)Nc3ccccc3OC)c2c1 | Haemophilus influenzae | microbial growth, broth dilution | H128 | – | – | MIC | 64 µM |
| CCCC(=O)NCC(=O)N[C@@H](CC(C)C)C(=O)N[C@@H](CC(C)C)C(=O)N[C@@H](CCCCN)C(=O)N[C@@H](CCCNC(=N)N)C(=O)N[C@H](C(=O)N[C@@H](CCCCN)C(=O)N[C@H](C(=O)N[C@@H](CC(C)C)C(=O)N[C@@H](CC(C)C)C(=O)NCCCC[C@H](NC(=O)[C@H](CC(C)C)NC(=O)[C@H](CC(C)C)NC(=O)[C@@H](NC(=O)[C@H](CCCCN)NC(=O)[C@@H](NC(=O)[C@H](CCCNC(=N)N)NC(=O)[C@H](CCCCN)NC(=O)[C@H](CC(C)C)NC(=O)[C@H](CC(C)C)NC(=O)CNC(=O)CCC)[C@@H](C)CC)[C@@H](C)O)C(=O)NCCCC[C@H](NC(=O)[C@H](CCCCNC(=O)[C@H](CC(C)C)NC(=O)[C@H](CC(C)C)NC(=O)[C@@H](NC(=O)[C@H](CCCCN)NC(=O)[C@@H](NC(=O)[C@H](CCCNC(=N)N)NC(=O)[C@H](CCCCN)NC(=O)[C@H](CC(C)C)NC(=O)[C@H](CC(C)C)NC(=O)CNC(=O)CCC)[C@@H](C)CC)[C@@H](C)O)NC(=O)[C@H](CC(C)C)NC(=O)[C@H](CC(C)C)NC(=O)[C@@H](NC(=O)[C@H](CCCCN)NC(=O)[C@@H](NC(=O)[C@H](CCCNC(=N)N)NC(=O)[C@H](CCCCN)NC(=O)[C@H](CC(C)C)NC(=O)[C@H](CC(C)C)NC(=O)CNC(=O)CCC)[C@@H](C)CC)[C@@H](C)O)C(N)=O)[C@@H](C)O)[C@@H](C)CC | Klebsiella pneumoniae | checkerboard | ATCC 700603 | added: gentamicin | – | FIC index | 0.375 |
| c1cc2c(s1)CCOC21CCN(Cc2ccc3c(c2)OCCO3)CC1 | Haemophilus influenzae | microbial growth, broth dilution | H128 | – | – | MIC | 64 µM |
| CN1CC23C4C=CC5C4C4C2C=CC4C53C1 | Influenza A virus | viral replication | MDCK, A/Ned/378/05 (H1N1) | – | – | EC50 | 7 µM |
| CC(C)C[C@H](NC(=O)OCc1ccccc1)C(=O)N[C@@H](C[C@@H]1CCNC1=O)C(O)S(=O)(=O)O (some centres unmarked) | human coronavirus NL63 | viral replication | – | – | – | EC50 | 0.19 ± 0.01 µM |
| CC[C@H](C)[C@H](NC(=O)[C@H](CCCNC(=N)N)NC(=O)[C@H](CCCCN)NC(=O)[C@H](CC(C)C)NC(=O)[C@H](CC(C)C)NC(=O)CN)C(=O)N[C@@H](CCCCN)C(=O)N[C@H](C(=O)N[C@@H](CC(C)C)C(=O)N[C@@H](CC(C)C)C(=O)NCCCC[C@H](NC(=O)[C@H](CC(C)C)NC(=O)[C@H](CC(C)C)NC(=O)[C@@H](NC(=O)[C@H](CCCCN)NC(=O)[C@@H](NC(=O)[C@H](CCCNC(=N)N)NC(=O)[C@H](CCCCN)NC(=O)[C@H](CC(C)C)NC(=O)[C@H](CC(C)C)NC(=O)CN)[C@@H](C)CC)[C@@H](C)O)C(N)=O)[C@@H](C)O | Klebsiella pneumoniae | checkerboard | ATCC 700603 | added: polymyxin B | – | FIC index | 0.5 |
| CC[C@H](C)[C@H](NC(=O)[C@H](CCC(N)=O)NC(=O)[C@@H]1CCCN1C(=O)[C@@H](NC(=O)[C@@H](NC(=O)[C@H](Cc1ccccc1)NC(=O)[C@H](C)NC(=O)[C@H](C)NC(=O)[C@H](CC(C)C)NC(=O)[C@H](CCCNC(=N)N)NC(=O)[C@H](C)NC(=O)[C@H](CC(C)C)NC(=O)[C@H](CC(C)C)NC(=O)CNC(=O)[C@@H](NC(=O)[C@@H](N)Cc1ccccc1)C(C)C)C(C)C)[C@@H](C)CC)C(=O)N[C@H](C(=O)N[C@@H](CCCCN)C(=O)N[C@@H](CCCNC(=N)N)C(=O)N[C@@H](Cc1ccccc1)C(=O)N[C@@H](CCC(N)=O)C(=O)N[C@@H](CCCCN)C(=O)N[C@@H](CCCCN)C(=O)N[C@@H](CC(N)=O)C(N)=O)C(C)C | Aspergillus flavus | ATP luminescence | ATCC 9170 | 48 h, 37 °C | – | MIC | > 50 µM |
| NC12C3CCC4C3C3C(CCC31)C42 | Influenza A virus | viral replication | MDCK, H3N2 A/HK/7/87 | – | – | EC50 | > 100 µM |
| CC[C@H](C)[C@H](NC(=O)[C@H](CCCNC(=N)N)NC(=O)[C@H](CCCCN)NC(=O)[C@H](CC(C)C)NC(=O)[C@H](CC(C)C)NC(=O)CN)C(=O)N[C@@H](CCCCN)C(=O)N[C@H](C(=O)N[C@@H](CC(C)C)C(=O)N[C@@H](CC(C)C)C(=O)NCCCC[C@H](NC(=O)[C@H](CC(C)C)NC(=O)[C@H](CC(C)C)NC(=O)[C@@H](NC(=O)[C@H](CCCCN)NC(=O)[C@@H](NC(=O)[C@H](CCCNC(=N)N)NC(=O)[C@H](CCCCN)NC(=O)[C@H](CC(C)C)NC(=O)[C@H](CC(C)C)NC(=O)CN)[C@@H](C)CC)[C@@H](C)O)C(=O)NCCCC[C@H](NC(=O)[C@H](CCCCNC(=O)[C@H](CC(C)C)NC(=O)[C@H](CC(C)C)NC(=O)[C@@H](NC(=O)[C@H](CCCCN)NC(=O)[C@@H](NC(=O)[C@H](CCCNC(=N)N)NC(=O)[C@H](CCCCN)NC(=O)[C@H](CC(C)C)NC(=O)[C@H](CC(C)C)NC(=O)CN)[C@@H](C)CC)[C@@H](C)O)NC(=O)[C@H](CC(C)C)NC(=O)[C@H](CC(C)C)NC(=O)[C@@H](NC(=O)[C@H](CCCCN)NC(=O)[C@@H](NC(=O)[C@H](CCCNC(=N)N)NC(=O)[C@H](CCCCN)NC(=O)[C@H](CC(C)C)NC(=O)[C@H](CC(C)C)NC(=O)CN)[C@@H](C)CC)[C@@H](C)O)C(N)=O)[C@@H](C)O | Klebsiella pneumoniae | checkerboard | ATCC 700603 | added: polymyxin B | – | FIC index | 0.125 |
| Cc1cccc(-c2nc(Nc3ccncn3)c3sccc3n2)n1 | Haemophilus influenzae | microbial growth, broth dilution | H128 | – | – | MIC | 8 µM |
